Results from different studies.
Each line is one published result; not all experiments were run side by side.
B1: Arp2 (Acanthamoeba castellanii, UniProt P53487); sequence looked up; chain MTDSSKVIVCDNGTGFVKCGFARSNFPASIFPSMVGRPILRSEEKFDNVEIKDIMVGDEASKLRSMLQITYPLDNGIVRNWEDAEHVWNYTFFEKLKVDPKDCKILLTEPPMNPLANREKMVQVMFEKYGFKAAYIAIQAVLTLYAQGLLTGVVVDSGDGVTHIVPVYEGFSLPHLTRRLNVAGRDVTRYLIKLLLLRGYVFNRTADFETVRQIKEKFCYVGYDLELEKRLALETTTLVEKYTLPDGRVIPIGAERFEAPECMFNPALVDQESVGVGELVFDCINKADIDTRAEFYNHIVLSGGSTMYPGLPSRLEKEIKRLYFERVAKGNKVSMQKFKCRIEDPPRRKHMVFLGGAVLAEIMKDKTAFWMNKSEYEEQGPRVLRKCF
B2: rpoN 60-135 (Aquifex aeolicus, UniProt O66858); sequence looked up; chain KETVPYQIPYTPSELEELQQNIKLELEGKEQELALELLNYLNEKGFLSKSVEEISDVLRCSVEELEKVRQKVLRLE
B3: α-sarcoglycan mature (Oryctolagus cuniculus, UniProt Q28686); N-linked glycans; sequence looked up; chain QQTTLYPLVGRVFVHTLEPASFLHLPEHAAPATIPVTYHAHLQGHPDLPRWLRYTQRSPHHPGFLYGAATPEDRGRQVIEVTAYNRDSFDTAGQSLVLLIRDPEGSPLPYQTEFLVRSHDVEEVLPPTPASHFLTALAGLWEPGELKLLNITSALDRGGRVPLPIGGQKEGVYIKVGSASPFSTCLKMVASPDSHARCARGQPPLLSCYDTLAPHFRVDWCNVSLVDTSVPEPVDEVPTPGDGILEHDPFFCPPTEATARDFLADALVTLLVPLLVALLLALLLAYIMCCRREGRLKRDLATSDIQMVHHCTIHENTEELRQMAASREVPRPLFPLPMFNVRTGERMPPRVDSAQVPLILDQH
B4: SF3B1 454-1304 R625H (Homo sapiens, UniProt O75533); chain KSVNDQPSGNLPFLKPDDIQYFDKLLVDVDESTLSPEEQKERKIMKLLLKIKNGTPPMRKAALRQITDKAREFGAGPLFNQILPLLMSPTLEDQERHLLVKVIDRILYKLDDLVRPYVHKILVVIEPLLIDEDYYARVEGREIISNLAKAAGLATMISTMRPDIDNMDEYVHNTTARAFAVVASALGIPSLLPFLKAVCKSKKSWQARHTGIKIVQQIAILMGCAILPHLRSLVEIIEHGLVDEQQKVRTISALAIAALAEAATPYGIESFDSVLKPLWKGIRQHRGKGLAAFLKAIGYLIPLMDAEYANYYTREVMLILIREFQSPDEEMKKIVLKVVKQCCGTDGVEANYIKTEILPPFFKHFWQHRMALDRRNYRQLVDTTVELANKVGAAEIISRIVDDLKDEAEQYRKMVMETIEKIMGNLGAADIDHKLEEQLIDGILYAFQEQTTEDSVMLNGFGTVVNALGKRVKPYLPQICGTVLWRLNNKSAKVRQQAADLISRTAVVMKTCQEEKLMGHLGVVLYEYLGEEYPEVLGSILGALKAIVNVIGMHKMTPPIKDLLPRLTPILKNRHEKVQENCIDLVGRIADRGAEYVSAREWMRICFELLELLKAHKKAIRRATVNTFGYIAKAIGPHDVLATLLNNLKVQERQNRVCTTVAIAIVAETCSPFTVLPALMNEYRVPELNVQNGVLKSLSFLFEYIGEMGKDYIYAVTPLLEDALMDRDLVHRQTASAVVQHMSLGVYGFGCEDSLNHLLNYVWPNVFETSPHVIQAVMGALEGLRVAIGPCRMLQYCLQGLFHPARKVRDVYWKIYNSIYIGSQDALIAHYPRIYNDDKNTYIRYELDYIL
B5: SNAP29 (Homo sapiens, UniProt O95721); chain MSAYPKSYNPFDDDGEDEGARPAPWRDARDLPDGPDAPADRQQYLRQEVLRRAEATAASTSRSLALMYESEKVGVASSEELARQRGVLERTEKMVDKMDQDLKISQKHINSIKSVFGGLVNYFKSKPVETPPEQNGTLTSQPNNRLKEAISTSKEQEAKYQASHPNLRKLDDTDPVPRGAGSAMSTDAYPKNPHLRAYHQKIDSNLDELSMGLGRLKDIALGMQTEIEEQDDILDRLTTKVDKLDVNIKSTERKVRQL
B6: SREBF1 227-487 (Homo sapiens, UniProt P36956); sequence looked up; chain TTVTSQIQQVPVLLQPHFIKADSLLLTAMKTDGATVKAAGLSPLVSGTTVQTGPLPTLVSGGTILATVPLVVDAEKLPINRLAAGSKAPASAQSRGEKRTAHNAIEKRYRSSINDKIIELKDLVVGTEAKLNKSAVLRKAIDYIRFLQHSNQKLKQENLSLRTAVHKSKSLKDLVSACGSGGNTDVLMEGVKTEVEDTLTPPPSDAGSPFQSSPLSLGSRGSGSGGSGSDSEPDSPVFEDSKAKPEQRPSLHSRGMLDRSR
B7: qcr9 (Schizosaccharomyces pombe, UniProt O74433); sequence looked up; chain MASSTIYNIFFRRNSSFYATIFVSAFFAKIGFDVFTDSVWKRANAGLTWDEVKPRFLNKDEDAEDDE
B8: RIE1 (Arabidopsis thaliana, UniProt Q8GUU2); sequence looked up; chain MSSYSSDSTAARDQHAPLLRPRHDGSFSSSSSSARPTALAVLLGRITGHRAPSMLVRETAARALEERRIDWGYSKPVVAADILWNAALVLASAVMLVGTVEERPNEPIRVWICVYGLQCLFHVVLVWSEYWRRNSTRRARDLESYDHEDYNIEYDYEQDSDDNSTTYSFVKRCESINTVISFIWWIIGFYWVVEGGDKLLGEAPNLYWLSVIFLAIDVFFAVFCVVLACLVGIALCCCLPCIIALLYAVAGTEGVSEAELGVLPLYKFKAFHSNEKNITGPGKMVPIPINGLCLATERTLLAEDADCCICLSSYEDGAELHALPCNHHFHSTCIVKWLKMRATCPLCKYNILKGTTDQS
B9: Sgip1 69-156 (Mus musculus, UniProt Q8VD37); chain AEIDWERYNSPELDEEGYSIRPEEPGSTKGKHFYSSSESEEEEESHKKFNIKIKPLQSKDVLKNAATVDELKASIGNIALSPSPVRKS
B10: PUM1 589-1186 (Homo sapiens, UniProt Q14671); chain ISSSAAQAAVAAAAASANGAAGGLAGTTNGPFRPLGTQQPQPQPQQQPNNNLASSSFYGNNSLNSNSQSSSLFSQGSAQPANTSLGFGSSSSLGATLGSALGGFGTAVANSNTGSGSRRDSLTGSSDLYKRTSSSLTPIGHSFYNGLSFSSSPGPVGMPLPSQGPGHSQTPPPSLSSHGSSSSLNLGGLTNGSGRYISAAPGAEAKYRSASSASSLFSPSSTLFSSSRLRYGMSDVMPSGRSRLLEDFRNNRYPNLQLREIAGHIMEFSQDQHGSRFIQLKLERATPAERQLVFNEILQAAYQLMVDVFGNYVIQKFFEFGSLEQKLALAERIRGHVLSLALQMYGCRVIQKALEFIPSDQQNEMVRELDGHVLKCVKDQNGNHVVQKCIECVQPQSLQFIIDAFKGQVFALSTHPYGCRVIQRILEHCLPDQTLPILEELHQHTEQLVQDQYGNYVIQHVLEHGRPEDKSKIVAEIRGNVLVLSQHKFASNVVEKCVTHASRTERAVLIDEVCTMNDGPHSALYTMMKDQYANYVVQKMIDVAEPGQRKIVMHKIRPHIATLRKYTYGKHILAKLEKYYMKNGVDLGPICGPPNGII
B11: VRN5 (Arabidopsis thaliana, UniProt Q9LHF5); sequence looked up; chain MDSSSTKSKISHSRKTNKKSNKKHESNGKQQQQQDVDGGGGCLRSSWICKNASCRANVPKEDSFCKRCSCCVCHNFDENKDPSLWLVCEPEKSDDVEFCGLSCHIECAFREVKVGVIALGNLMKLDGCFCCYSCGKVSQILGCWKKQLVAAKEARRRDGLCYRIDLGYRLLNGTSRFSELHEIVRAAKSMLEDEVGPLDGPTARTDRGIVSRLPVAANVQELCTSAIKKAGELSANAGRDLVPAACRFHFEDIAPKQVTLRLIELPSAVEYDVKGYKLWYFKKGEMPEDDLFVDCSRTERRMVISDLEPCTEYTFRVVSYTEAGIFGHSNAMCFTKSVEILKPVDGKEKRTIDLVGNAQPSDREEKSSISSRFQIGQLGKYVQLAEAQEEGLLEAFYNVDTEKICEPPEEELPPRRPHGFDLNVVSVPDLNEEFTPPDSSGGEDNGVPLNSLAEADGGDHDDNCDDAVSNGRRKNNNDCLVISDGSGDDTGFDFLMTRKRKAISDSNDSENHECDSSSIDDTLEKCVKVIRWLEREGHIKTTFRVRFLTWFSMSSTAQEQSVVSTFVQTLEDDPGSLAGQLVDAFTDVVSTKRPNNGVMTSH
B12: SNAPC5 (Homo sapiens, UniProt O75971); chain MLSRLQELRKEEETLLRLKAALHDQLNRLKVEELALQSMISSRRGDEMLSSHTVPEQSHDMLVHVDNEASINQTTLELSTKSHVTEEEEEEEEEESDS
B13: PSMG3 1-122 (Homo sapiens, UniProt Q9BT73); chain MEDTPLVISKQKTEVVCGVPTQVVCTAFSSHILVVVTQFGKMGTLVSLEPSSVASDVSKPVLTTKVLLGQDEPLIHVFAKNLVAFVSQEAGNRAVLLAVAVKDKSMEGLKALREVIRVCQVW
B14: TFB2M 21-396 (Homo sapiens, UniProt Q9H5Q4); sequence looked up; chain GRFCILGSEAATRKHLPARNHCGLSDSSPQLWPEPDFRNPPRKASKASLDFKRYVTDRRLAETLAQIYLGKPSRPPHLLLECNPGPGILTQALLEAGAKVVALESDKTFIPHLESLGKNLDGKLRVIHCDFFKLDPRSGGVIKPPAMSSRGLFKNLGIEAVPWTADIPLKVVGMFPSRGEKRALWKLAYDLYSCTSIYKFGRIEVNMFIGEKEFQKLMADPGNPDLYHVLSVIWQLACEIKVLHMEPWSSFDIYTRKGPLENPKRRELLDQLQQKLYLIQMIPRQNLFTKNLTPMNYNIFFHLLKHCFGRRSATVIDHLRSLTPLDARDILMQIGKQEDEKVVNMHPQDFKTLFETIERSKDCAYKWLYDETLEDR
B15: NEDD4L 492-581 (Homo sapiens, UniProt Q96PU5); chain HKVTQSFLPPGWEMRIAPNGRPFFIDHNTKTTTWEDPRLKFPVHMRSKTSLNPNDLGPLPPGWEERIHLDGRTFYIDHNSKITQWEDPRL
B16: CNNM4 352-511 (Homo sapiens, UniProt Q6P4Q7); sequence looked up; chain NDLVKEELNMIQGALELRTKTVEDIMTQLQDCFMIRSDAILDFNTMSEIMESGYTRIPVFEDEQSNIVDILYVKDLAFVDPDDCTPLKTITRFYNHPVHFVFHDTKLDAMLEEFKKGKSHLAIVQKVNNEGEGDPFYEVLGLVTLEDVIEEIIKSEILDE
UniProt Q8WUP2, sequence (whole entry, looked up): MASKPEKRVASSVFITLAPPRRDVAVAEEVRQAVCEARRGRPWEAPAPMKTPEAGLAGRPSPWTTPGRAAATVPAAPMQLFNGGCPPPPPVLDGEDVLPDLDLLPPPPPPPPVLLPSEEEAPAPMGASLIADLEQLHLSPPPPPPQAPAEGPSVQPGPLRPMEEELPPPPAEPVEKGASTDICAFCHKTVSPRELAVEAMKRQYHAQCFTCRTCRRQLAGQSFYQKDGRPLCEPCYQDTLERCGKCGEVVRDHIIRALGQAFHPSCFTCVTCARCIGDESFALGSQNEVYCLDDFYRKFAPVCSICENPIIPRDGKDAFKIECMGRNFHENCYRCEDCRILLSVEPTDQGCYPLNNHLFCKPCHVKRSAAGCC
UniProt Q9STR4, sequence (whole entry, looked up): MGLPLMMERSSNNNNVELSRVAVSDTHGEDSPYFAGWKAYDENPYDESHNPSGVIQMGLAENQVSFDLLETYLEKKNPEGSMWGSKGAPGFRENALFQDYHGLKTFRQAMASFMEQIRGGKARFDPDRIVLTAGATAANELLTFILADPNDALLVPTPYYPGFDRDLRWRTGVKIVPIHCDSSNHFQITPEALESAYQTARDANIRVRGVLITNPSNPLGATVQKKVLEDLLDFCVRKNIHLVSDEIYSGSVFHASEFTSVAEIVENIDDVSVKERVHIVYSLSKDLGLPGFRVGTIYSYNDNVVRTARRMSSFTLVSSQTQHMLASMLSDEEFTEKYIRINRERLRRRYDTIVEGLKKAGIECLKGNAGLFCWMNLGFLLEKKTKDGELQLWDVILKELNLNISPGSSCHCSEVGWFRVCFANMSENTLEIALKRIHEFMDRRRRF
UniProt Q09312, sequence (whole entry, looked up): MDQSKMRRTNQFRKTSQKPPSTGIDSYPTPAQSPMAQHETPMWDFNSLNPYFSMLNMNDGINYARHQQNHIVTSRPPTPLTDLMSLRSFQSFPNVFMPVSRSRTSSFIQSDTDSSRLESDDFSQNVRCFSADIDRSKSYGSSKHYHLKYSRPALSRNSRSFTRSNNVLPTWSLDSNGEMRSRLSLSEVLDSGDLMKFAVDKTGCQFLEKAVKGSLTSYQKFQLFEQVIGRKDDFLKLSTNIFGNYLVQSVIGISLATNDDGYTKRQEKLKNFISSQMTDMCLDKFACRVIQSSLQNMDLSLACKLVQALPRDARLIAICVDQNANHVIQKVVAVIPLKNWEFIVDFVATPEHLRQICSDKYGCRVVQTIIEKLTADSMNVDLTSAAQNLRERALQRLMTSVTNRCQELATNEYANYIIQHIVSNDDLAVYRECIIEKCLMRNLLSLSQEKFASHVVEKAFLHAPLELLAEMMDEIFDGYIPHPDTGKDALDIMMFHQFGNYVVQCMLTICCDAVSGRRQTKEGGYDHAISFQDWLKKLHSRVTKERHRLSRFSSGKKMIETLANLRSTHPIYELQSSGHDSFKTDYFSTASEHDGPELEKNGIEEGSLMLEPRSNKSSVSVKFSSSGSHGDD
UniProt P53490, sequence (whole entry, looked up): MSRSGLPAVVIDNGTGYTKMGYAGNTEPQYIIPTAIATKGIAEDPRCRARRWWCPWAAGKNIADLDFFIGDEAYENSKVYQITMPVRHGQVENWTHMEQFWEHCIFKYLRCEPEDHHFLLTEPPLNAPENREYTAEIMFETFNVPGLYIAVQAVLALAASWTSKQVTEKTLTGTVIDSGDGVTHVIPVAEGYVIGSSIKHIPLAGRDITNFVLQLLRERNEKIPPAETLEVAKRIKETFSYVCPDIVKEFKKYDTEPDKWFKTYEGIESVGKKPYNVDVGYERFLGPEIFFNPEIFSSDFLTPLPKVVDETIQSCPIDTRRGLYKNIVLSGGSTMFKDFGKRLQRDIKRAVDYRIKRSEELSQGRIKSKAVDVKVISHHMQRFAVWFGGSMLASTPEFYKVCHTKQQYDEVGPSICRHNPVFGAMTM
UniProt Q28685, sequence (whole entry, looked up): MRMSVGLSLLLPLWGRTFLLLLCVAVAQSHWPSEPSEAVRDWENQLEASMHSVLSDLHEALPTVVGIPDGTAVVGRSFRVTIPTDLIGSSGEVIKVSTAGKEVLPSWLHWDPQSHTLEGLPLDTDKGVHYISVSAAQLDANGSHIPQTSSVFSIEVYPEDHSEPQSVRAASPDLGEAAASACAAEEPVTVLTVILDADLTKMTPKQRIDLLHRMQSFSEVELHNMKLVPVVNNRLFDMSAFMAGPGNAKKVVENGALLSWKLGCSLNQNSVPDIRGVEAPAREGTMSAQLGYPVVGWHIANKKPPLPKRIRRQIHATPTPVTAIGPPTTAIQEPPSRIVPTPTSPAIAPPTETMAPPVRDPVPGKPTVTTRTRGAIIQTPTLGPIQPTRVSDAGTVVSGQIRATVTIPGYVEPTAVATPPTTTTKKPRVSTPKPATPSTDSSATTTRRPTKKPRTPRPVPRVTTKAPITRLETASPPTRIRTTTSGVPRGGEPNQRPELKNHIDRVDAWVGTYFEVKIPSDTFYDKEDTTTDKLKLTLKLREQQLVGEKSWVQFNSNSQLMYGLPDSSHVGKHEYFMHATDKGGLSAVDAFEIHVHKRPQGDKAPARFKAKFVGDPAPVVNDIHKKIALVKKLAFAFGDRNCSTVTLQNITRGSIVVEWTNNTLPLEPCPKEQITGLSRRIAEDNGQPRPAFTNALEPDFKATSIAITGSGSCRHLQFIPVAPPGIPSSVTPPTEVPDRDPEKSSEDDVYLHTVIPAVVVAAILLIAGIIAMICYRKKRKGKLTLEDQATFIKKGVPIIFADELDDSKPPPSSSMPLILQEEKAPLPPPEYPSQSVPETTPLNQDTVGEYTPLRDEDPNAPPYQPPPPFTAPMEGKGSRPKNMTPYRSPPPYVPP
UniProt Q9UPY3, sequence (whole entry, looked up): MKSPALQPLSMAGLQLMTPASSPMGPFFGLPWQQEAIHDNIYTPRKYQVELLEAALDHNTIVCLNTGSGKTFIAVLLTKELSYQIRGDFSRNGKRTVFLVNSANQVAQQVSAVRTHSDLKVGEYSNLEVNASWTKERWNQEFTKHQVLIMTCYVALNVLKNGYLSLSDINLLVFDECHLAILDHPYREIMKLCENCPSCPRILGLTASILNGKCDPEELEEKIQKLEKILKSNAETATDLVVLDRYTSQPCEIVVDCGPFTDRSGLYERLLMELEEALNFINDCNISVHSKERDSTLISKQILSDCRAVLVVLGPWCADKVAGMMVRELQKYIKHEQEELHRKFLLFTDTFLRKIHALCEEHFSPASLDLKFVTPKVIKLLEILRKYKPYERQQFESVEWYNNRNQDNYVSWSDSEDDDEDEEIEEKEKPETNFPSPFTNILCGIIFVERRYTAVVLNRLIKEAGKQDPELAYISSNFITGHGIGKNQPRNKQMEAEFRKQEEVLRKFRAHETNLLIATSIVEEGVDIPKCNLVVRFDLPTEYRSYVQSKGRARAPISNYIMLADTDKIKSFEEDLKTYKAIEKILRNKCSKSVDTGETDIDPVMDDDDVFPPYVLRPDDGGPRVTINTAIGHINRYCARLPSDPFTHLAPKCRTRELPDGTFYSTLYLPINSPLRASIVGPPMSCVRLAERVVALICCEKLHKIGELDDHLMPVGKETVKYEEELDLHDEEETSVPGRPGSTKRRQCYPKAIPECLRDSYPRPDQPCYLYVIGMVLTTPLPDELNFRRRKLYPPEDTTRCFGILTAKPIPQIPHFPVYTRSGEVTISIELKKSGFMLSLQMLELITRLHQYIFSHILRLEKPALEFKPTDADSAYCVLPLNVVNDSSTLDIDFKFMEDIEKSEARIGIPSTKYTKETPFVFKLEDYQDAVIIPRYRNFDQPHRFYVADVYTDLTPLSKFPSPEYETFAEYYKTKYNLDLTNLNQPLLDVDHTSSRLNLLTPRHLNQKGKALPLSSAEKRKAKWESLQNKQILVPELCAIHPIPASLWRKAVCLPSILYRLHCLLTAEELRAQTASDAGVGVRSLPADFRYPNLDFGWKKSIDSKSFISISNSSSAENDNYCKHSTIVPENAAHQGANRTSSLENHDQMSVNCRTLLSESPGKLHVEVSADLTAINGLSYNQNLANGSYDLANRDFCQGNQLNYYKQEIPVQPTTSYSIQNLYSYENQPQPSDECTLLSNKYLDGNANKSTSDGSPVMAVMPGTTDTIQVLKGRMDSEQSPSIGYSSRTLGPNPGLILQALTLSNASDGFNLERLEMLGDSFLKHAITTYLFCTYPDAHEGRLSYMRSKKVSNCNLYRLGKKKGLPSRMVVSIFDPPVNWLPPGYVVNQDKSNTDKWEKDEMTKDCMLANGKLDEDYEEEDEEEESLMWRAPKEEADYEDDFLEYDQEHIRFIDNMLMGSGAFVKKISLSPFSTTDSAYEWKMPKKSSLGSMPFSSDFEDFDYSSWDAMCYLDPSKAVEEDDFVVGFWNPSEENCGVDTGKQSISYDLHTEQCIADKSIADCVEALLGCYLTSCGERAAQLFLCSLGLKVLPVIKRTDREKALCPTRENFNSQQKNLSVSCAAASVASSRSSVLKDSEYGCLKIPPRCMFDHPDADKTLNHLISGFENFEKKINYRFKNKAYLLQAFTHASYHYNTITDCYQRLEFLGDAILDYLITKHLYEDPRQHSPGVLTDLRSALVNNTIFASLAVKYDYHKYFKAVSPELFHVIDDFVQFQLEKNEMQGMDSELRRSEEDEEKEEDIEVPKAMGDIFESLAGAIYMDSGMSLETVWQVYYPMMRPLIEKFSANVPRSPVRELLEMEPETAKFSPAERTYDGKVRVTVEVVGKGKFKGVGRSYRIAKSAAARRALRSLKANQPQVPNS
UniProt O74988, sequence (whole entry, looked up): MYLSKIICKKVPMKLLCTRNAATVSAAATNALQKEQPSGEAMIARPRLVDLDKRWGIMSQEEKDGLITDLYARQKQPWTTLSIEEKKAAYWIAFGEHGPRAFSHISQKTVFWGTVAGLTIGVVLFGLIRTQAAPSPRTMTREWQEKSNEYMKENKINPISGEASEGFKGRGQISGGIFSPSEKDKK
UniProt Q5JS54, sequence (whole entry, looked up): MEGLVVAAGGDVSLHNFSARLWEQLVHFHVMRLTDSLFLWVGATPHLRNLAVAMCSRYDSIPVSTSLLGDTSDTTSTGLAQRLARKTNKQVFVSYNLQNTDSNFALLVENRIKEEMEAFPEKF

Molecule | partner | assay | test system | conditions | binding
B1 (Arp2) | Arp3 (Acanthamoeba castellanii, UniProt P53490) | negative-stain EM | – | – | binds
B2 (rpoN 60-135) | rpoN 138-240 (Aquifex aeolicus, UniProt O66858) | NMR titration | – | – | binds
B3 (α-sarcoglycan mature) | DAG1 alpha-dystroglycan (Oryctolagus cuniculus, UniProt Q28685) | cryo-EM structure | – | – | binds
B4 (SF3B1 454-1304 R625H) | SF3B3 (Homo sapiens, UniProt Q15393) | cryo-EM | – | – | binds
LANFLVHSSNNFGAIL (hIAPP residues 12-27 (Homo sapiens); O-GlcNAc serine) | IAPP mature (Homo sapiens, UniProt P10997) | SPR | peptide | – | binds
B5 (SNAP29) | FBLIM1 (Homo sapiens, UniProt Q8WUP2) | pull-down | – | – | binds
B6 (SREBF1 227-487) | LMNA 389-664 R482W (UniProt P02545) | pull-down | – | – | binds
Arc (Rattus norvegicus, UniProt Q63053) | tau 2N4R, dephosphorylated (Homo sapiens, UniProt P10636-8) | pull-down | – | – | binds
B7 (qcr9) | COX5 mature (Schizosaccharomyces pombe, UniProt O74988) | cryo-EM | – | – | binds
B8 (RIE1) | ACS7 (Arabidopsis thaliana, UniProt Q9STR4) | pull-down | – | 2 h, 4 °C | binds
NGVTKTALEPRARVEKDYGK (gld-3 860-879 I866A (Caenorhabditis elegans, UniProt Q95ZK7); sequence looked up) | fbf-2 164-575 (Caenorhabditis elegans, UniProt Q09312) | fluorescence polarisation | peptide | – | binds
B9 (Sgip1 69-156) | AP2A2/AP2B1/AP2M1/AP2S1 core, lacking appendage domains (Mus musculus) | cryo-EM | – | – | binds
B10 (PUM1 589-1186) | CNOT1/CNOT2/CNOT3 NOT module 1833-2361 | cross-linking | – | – | binds
B11 (VRN5) | COP1 (Arabidopsis thaliana, UniProt P43254) | pull-down | – | – | binds
B10 (PUM1 589-1186) | CNOT1/CNOT2/CNOT3 NOT module 1833-2361 | pull-down | – | – | binds
B12 (SNAPC5) | SNAPC2 (Homo sapiens, UniProt Q13487) | cross-linking | – | – | binds
B13 (PSMG3 1-122) | PSMG4 1-123 (Homo sapiens, UniProt Q5JS54) | cryo-EM | – | – | binds
B14 (TFB2M 21-396) | POLRMT 120-1230 E555A (Homo sapiens, UniProt O00411) | cryo-EM | – | – | binds
B15 (NEDD4L 492-581) | NaV1.7/calmodulin NaV1.7 C-terminus (Homo sapiens) | SEC | – | – | binds
B16 (CNNM4 352-511) | PTP4A3 1-169 (Homo sapiens, UniProt O75365) | pull-down | – | – | binds
RVB1 (Saccharomyces cerevisiae, UniProt Q03940) | VPS72 (Saccharomyces cerevisiae, UniProt Q03388) | cryo-EM | – | – | binds
TARBP2 (Homo sapiens, UniProt Q15633) | DICER1 (Homo sapiens, UniProt Q9UPY3) | SEC | – | – | binds

Repeated from above:
Molecule | partner | assay | test system | conditions | binding
B8 (RIE1) | ACS7 (Arabidopsis thaliana, UniProt Q9STR4) | pull-down | – | 2 h, 4 °C | binds
